# Measurements collected from several papers.
# A part holds a random share of what one study measured. Positions count from the first letter of the parent shown.

# Sample 1 — target: CCNB1, cyclin fold, Cln2 fusion (human); method: yeast growth competition, sequencing; matrix: yeast; notes: strong parent motif; reference: not given; reading: higher = stronger binding
# Parent: DNAH7 docking peptide (human); HELFQRLDFDNDG; partner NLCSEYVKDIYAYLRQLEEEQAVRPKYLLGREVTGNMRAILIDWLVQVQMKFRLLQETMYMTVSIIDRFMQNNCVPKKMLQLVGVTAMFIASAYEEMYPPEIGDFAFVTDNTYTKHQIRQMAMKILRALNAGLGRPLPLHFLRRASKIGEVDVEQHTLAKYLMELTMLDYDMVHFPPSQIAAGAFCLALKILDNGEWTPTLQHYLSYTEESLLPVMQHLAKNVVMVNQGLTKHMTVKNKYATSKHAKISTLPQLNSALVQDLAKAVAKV
Change,normalised enrichment score
E2A,2.03
H1A,1.55
L7A,-0.348
D12A,1.52
G13A,1.83
D10A,0.304

# Sample 2 — method: DHFR PCA, deep sequencing; matrix: yeast; with: (+)-ABA 0.39 µM; reference: wild-type fitted maximum; reading: higher = stronger binding
# Target: ABI1, truncated, D143A, DHFR fusion (Arabidopsis thaliana)
# Notes: methotrexate growth selection, single substitutions
# Parent: PYL1, truncated, DHFR fusion (Arabidopsis thaliana); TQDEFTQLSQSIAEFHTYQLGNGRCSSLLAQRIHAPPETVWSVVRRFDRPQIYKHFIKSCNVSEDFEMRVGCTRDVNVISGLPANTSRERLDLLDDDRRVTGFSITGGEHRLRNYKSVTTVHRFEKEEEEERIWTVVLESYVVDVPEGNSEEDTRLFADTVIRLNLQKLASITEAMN; partner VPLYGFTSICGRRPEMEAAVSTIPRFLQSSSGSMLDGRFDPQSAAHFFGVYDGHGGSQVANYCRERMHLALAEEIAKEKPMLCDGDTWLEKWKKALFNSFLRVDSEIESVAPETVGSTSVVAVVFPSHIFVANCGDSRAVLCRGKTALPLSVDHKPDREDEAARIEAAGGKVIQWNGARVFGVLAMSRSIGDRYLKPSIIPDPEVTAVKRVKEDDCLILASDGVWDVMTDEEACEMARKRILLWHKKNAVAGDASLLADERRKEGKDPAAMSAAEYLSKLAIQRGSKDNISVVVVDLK
Change,relative binding score
A158K,-13.5%
T73G,-6.66%
E131Y,18.8%
P146C,7.68%
V40W,1.24%
R113I,26.3%
E109D,104%
T106F,28.7%
Q51N,2.81%
S26N,6.02%
R113L,30%
T154D,-9.02%

# Sample 3 — method: RNA Bind-n-Seq; molecule type: RNA; matrix: in vitro; tested at: not given; reference: input RNA pool; reading: higher = stronger binding
# Target: RING finger protein unkempt homolog, zinc fingers 1-6, GST-SBP tag (UNK, Homo sapiens, UniProt Q9C0B0, residues 30-357)
# Chain of UniProt Q9C0B0 (30-357, looked up): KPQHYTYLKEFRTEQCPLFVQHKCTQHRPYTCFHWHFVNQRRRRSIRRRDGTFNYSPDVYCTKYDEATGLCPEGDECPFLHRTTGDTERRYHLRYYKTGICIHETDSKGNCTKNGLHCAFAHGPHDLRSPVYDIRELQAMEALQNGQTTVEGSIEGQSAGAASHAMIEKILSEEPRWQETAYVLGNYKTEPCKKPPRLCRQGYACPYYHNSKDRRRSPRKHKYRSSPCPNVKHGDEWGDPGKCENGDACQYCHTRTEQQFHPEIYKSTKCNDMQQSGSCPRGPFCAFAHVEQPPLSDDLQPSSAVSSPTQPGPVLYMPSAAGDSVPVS
# Notes: RNA with constant flanks, human and mouse sites, ends assumed
# Shared flanks, not repeated: GGGAGUUCUACAGUCCGACGAUC … CAACAGAGGAUUGAGCAUCA
Strand,bound/input enrichment [ratio]
GCCGAGGCCUCACUUAUUCUAAUCUGUAGGGUUUUUUUUUUUUUUUAAAGACUUUUGAAUGUUUAAUAAUUUUGUAGAUCAUGCUCUUUACACAGAGUACCGCUUAUUUAAUAAGACGGG,28.1
GAGUUUACGAGGAAACCCGUUGGUUGUUCGUUUUGUUAGAGAUUUAACGUAUGACCCUCCGACUCUUCUGGAAUUAGCUGCAAGGACCAUUAAGAUCCGAAGUAUUUCUUACACUCCCUA,0.641
GGAGUCCUGCCCCUUGGAGCUCAUGGUGCGCUGCGGUUGCGCUUUGUUGAGAAAGUAUGGAAAUUUCAUUGAUAACCUGAGAAUCUUCACCAAGGGAGGAAGCGGUGGAAUGGGUUACCC,0.196
AAUAUAAAAGAAUCUCCGAAGAGGCCAGAAACUAGAUCCUUUACUCCUGAAGAAUUCUUUAGUAUUUUCAAUAGAUCCAUUGAUGCCUUUAAGGACUUUAUGGUGGCAUCUGACACUAGU,74.4
ACAGGGCUAGGCCUCCGCUUCUGGCUUUGGGUUUUUUCUGUUGUUGUUGGUUUUUUUUUUUUUUUUUAAAUCUCCACCCCCAUCCGCGGGCGGCAUCGCUGCGCGCGCGCGCGCGCGCUC,0.781
AAGGACCAGUUCAAGAUGCCCCGGGACUGAGGCCGCCCUGCACCUUCAGCGGAUUUGGGGAUUAGGCUCUUUUAGGUAACUGGCUUUCCUGCUGGUCCGUGCGGGAAAUUCAGUCUUGAU,1.08
GCCUUGGUCCUAGCACCCACUCGAGAAUUGGCUCAGCAGAUACAGAAGGUGGUCAUGGCACUAGGAGACUACAUGGGCGCCUCCUGUCACGCCUGUAUCGGGGGCACCAACGUGCGUGCU,0.135
AAUUCAAUGGUUGAGGGUUCAGAACUCAAAAAGGUUCGCUCCAACUCUAGAAUUUAUCAUAGGUACUUUUUACUGGAUGCUGACAUGCAGAGCCUAAGGUGGGAGCCAUCUAAGAAGGAU,4.95
UCUGCCACCCAGCAGAAGAAAAACACCAAACUCUCUAGCAAAACGACUGCUAAGUUAUCCACUAGUGCUAAAAGAAUUCAGAAGGAGCUAGCAGAGAUAACCCUUGAUCCUCCUCCUAAC,0.657
UCAAAUAAUUAUAACAACAUGAACAACAGAAAUGUGAAAAACUCAAAUUACUGUCUUCCAUCAUAUACCGCUUAUAAGAACUAUGAUUAUUCGGAACCUGGAAGAAACAAUGAACAGCCA,0.372
GAACAGCUCAAGAAGAAAACACUGGAGGUGACAGUUUGGGAUUAUGAUAGAUUUUCAUCCAACGACUUCCUUGGGGAGGUAUUGAUUGAUUUAUCUAGCACAUCUCACCUCGAUAACACU,0.193

# Sample 4 — method: protein binding microarray; molecule type: double-stranded DNA, one strand shown; matrix: in vitro; tested at: not given; reference: not given; reading: higher = stronger binding
# Target: Histone acetyltransferase KAT6A, winged helix 2, GST fusion (KAT6A, Homo sapiens, UniProt Q92794, residues 85-181)
# Notes: 8-mer, flanks averaged, mean of 2 arrays, mostly near background
# Residues (chain): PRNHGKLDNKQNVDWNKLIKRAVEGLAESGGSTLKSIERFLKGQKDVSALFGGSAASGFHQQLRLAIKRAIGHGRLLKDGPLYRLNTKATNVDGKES
Strand,E-score
ACACTCTC,-0.0886
CAAGGCTC,-0.0766
AGCTAGGG,-0.0183
CAGCCGGG,0.135
TGGTGGAA,-0.0465
AGTCGTTG,-0.235
CCAGCTGC,-0.0402
ACCCGTAT,-0.0433
GGACGCCA,0.00139
ACACGGGG,0.12
GCTGGCCC,0.000445
AGTACGCC,-0.0363
ACTGGCAC,-0.0503
AAATCGTC,-0.0818
GGGTGCAC,0.025
ACGAAAAG,-0.0281
CTCGGTAC,-0.173

# Sample 5 — target: UBE2D1 UBC core domain (UniProt P51668); method: yeast two-hybrid; matrix: yeast; notes: mostly zero background; reference: not given; reading: higher = stronger interaction
# B1: ARK2C RING domain (UniProt Q6ZSG1); chain EGEESDTDEKCTICLSMLEDGEDVRRLPCMHLFHQLCVDQWLAMSKKCPICRVDIETQLGAD
# B2: RNF170 RING domain (UniProt Q96K19); chain TRQQFYTDMYCPICLHQASFPVETNCGHLFCGACIIAYWRYGSWLGAISCPICRQTVTLLLTVF
# B3: UHRF2 RING domain (UniProt Q96PU4); chain CGGDPEKKCHSCSCRVCGGKHEPNMQLLCDECNVAYHIYCLNPPLDKVPEEEYWYCPSCKTDSSEVVKAGER
# B4: TRIM72 RING domain (UniProt Q6ZMU5); chain APGLLHQELSCPLCLQLFDAPVTAECGHSFCRACLGRVAGEPAADGTVLCPCCQAPTRPQALST
# B5: PHF21A RING domain (UniProt Q96BD5); chain SPTSTDGDIHEDFCSVCRKSGQLLMCDTCSRVYHLDCLDPPLKTIPKGMWICPRCQDQMLKKEEAIPW
# B6: TRIM8 RING domain (UniProt Q9BZR9); chain WKNCFEEELICPICLHVFVEPVQLPCKHNFCRGCIGEAWAKDSGLVRCPECNQAYNQKPGLE
# Residues (chain): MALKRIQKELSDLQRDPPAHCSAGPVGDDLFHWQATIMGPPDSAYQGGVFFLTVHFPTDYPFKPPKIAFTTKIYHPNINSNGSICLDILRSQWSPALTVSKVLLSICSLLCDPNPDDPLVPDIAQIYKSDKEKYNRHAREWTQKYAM
Sequence,lacZ reporter activity
B1 (ARK2C RING domain),5120
QLQDIKEQTMCPVCLDRLKNMIFLCGHGTCQLCGDRMSECPICRKAIERRILLY (MIB1 RING domain (UniProt Q86YT6)),11700
B2 (RNF170 RING domain),0
RLTMMWEEVTCPICLDPFVEPVSIECGHSFCQECISQVGKGGGSVCPVCRQRFLLKNLRP (TRIM21 RING domain (UniProt P19474)),0
B3 (UHRF2 RING domain),0
QHHELTSLFECPVCFDYVLPPILQCQAGHLVCNQCRQKLSCCPTCRGALTPSIRNL (SIAH2 RING domain (UniProt O43255)),0
B4 (TRIM72 RING domain),0
B5 (PHF21A RING domain),0
FASPPDSNFVCSVCHGVLKRPARLPCSHIFCKKCILRWLARQKTCPCCRKEVKRKKVVH (RNF151 RING domain (UniProt Q2KHN1)),0
KTLSRFGIQPCSICLGDAKDPVCLPCDHVHCLRCLRAWFASEQMICPYCLTALPDEFSPA (RNF213 RING domain (UniProt Q63HN8)),0
EDEVSDNSAECVVCLSDVRDTLILPCRHLCLCNTCADTLRYQANNCPICRLPFRALLQIR (RNF157 RING domain (UniProt Q96PX1)),5330
B6 (TRIM8 RING domain),0
